{"data": "Published values pooled from the literature", "note": "Protocols differ between the studies behind these lines. ± gives the spread as reported."}
{"SMILES": "Cc1c(C)c(C)[c-](C)c1C.O=C1c2cccc[n+]2[Ir]([Cl])[N]1CCCCCCCCCC[P+](c1ccccc1)(c1ccccc1)c1ccccc1.[Br-]", "technique": "shake-flask", "medium": "octanol/PBS", "logP": "0.94 ± 0.12"}
{"SMILES": "CC[P+](CC)(CC)[Au-][S][C@@H]1O[C@H](CO)[C@@H](O)[C@H](O)[C@H]1O", "medium": "n-octanol/water", "logP": -0.81}
{"SMILES": "O=C(N[c-]1cccc1)OCc1ccc(F)cc1.[Fe+2].c1cc[cH-]c1", "technique": "RP-TLC", "medium": "MOPS/acetonitrile", "pH": "pH 7.4", "logP": "4.17 ± 0.27"}
{"SMILES": "CC[P+](c1ccccc1)(c1ccccc1)c1ccccc1", "technique": "HPLC", "medium": "octanol/PBS", "logP": -0.429}
{"SMILES": "COC(=O)c1ccccc1-c1c2ccc(=O)cc-2oc2cc(OCCCCCCCC[P+](c3ccccc3)(c3ccccc3)c3ccccc3)ccc12", "technique": "shake-flask HPLC", "medium": "1-octanol/water", "logP": "1.25 ± 0.05"}
{"SMILES": "CCC1=C(CC)C2=[N+]3C1=Cc1c(CC)c(CC)c4[n]1[Ir-3]31([C]#[N+]c3ccc(OC)cc3)([C]#[N+]c3ccc(OC)cc3)[n]3c(c(CC)c(CC)c3=CC3=[N+]1C(=C4)C(CC)=C3CC)=C2.F[B-](F)(F)F", "technique": "ICP-MS", "medium": "n-octanol/saline", "logP": 3.11}
{"SMILES": "COCCOCCOCCOCCOCCOCCOCCOCCOCCOCCOCCOCCNC(=O)CCC1(CCC(=O)NCCOCCOCCOCCOCCOCCOCCOCCOCCOCCOCCOCCOC)c2ccccc2-c2ccc(-c3sc(-c4c5c(c(-c6sc(-c7ccc8c(c7)C(CCC(=O)NCCOCCOCCOCCOCCOCCOCCOCCOCCOCCOCCOCCOC)(CCC(=O)NCCOCCOCCOCCOCCOCCOCCOCCOCCOCCOCCOCCOC)c7ccccc7-8)c7c6OCCO7)c6nsnc46)N=S=N5)c4c3OCCO4)cc21", "technique": "shake flask", "medium": "n-octanol/water", "logP": -1.25}
{"SMILES": "CC/C=C\\C/C=C\\C/C=C\\C/C=C\\C/C=C\\C/C=C\\CCC(=O)Nc1ccn(C2OC(CO)C(O)C2(F)F)c(=O)n1 (centres unmarked)", "medium": "octanol/PBS", "pH": "pH 7.4", "logP": "2.24 ± 0.25"}
{"SMILES": "N=C(N)NCCC[C@@H]1NC(=O)[C@H](CCCCNC(=O)CC[C@H](NC(=O)CN2CCN(CC(=O)O)CCN(CC(=O)O)CCN(CC(=O)O)CC2)C(=O)NCCCC[C@@H]2NC(=O)[C@@H](Cc3ccccc3)NC(=O)[C@H](CC(=O)O)NC(=O)CNC(=O)[C@H](CCCNC(=N)N)NC2=O)NC(=O)[C@@H](Cc2ccccc2)NC(=O)[C@H](CC(=O)O)NC(=O)CNC1=O [gallium-68 labelled]", "medium": "octanol/PBS", "pH": "pH 7.4", "temperature": "room temperature", "logP": "-4.04 ± 0.15"}
{"SMILES": "Fc1cc2nc3c4cccnc4c4ncccc4c3nc2cc1F.[Cl-].[Cl-].[Ru+2].c1ccncc1.c1ccncc1.c1ccncc1.c1ccncc1", "medium": "n-octanol/water", "logP": "-1.15 ± 0.05"}
{"SMILES": "Cc1c(C)c(C)[c-](C)c1C.[C-]#[O+].[C-]#[O+].[C-]#[O+].[Cl-].[Cl-].[Cl-].[Ir+3].[Re+].c1cnc(-c2ncccn2)nc1", "technique": "shake flask", "logP": 0.47}
{"SMILES": "COc1cc(OC)cc(C2=C3C(C)=C(I)C(C)=[N+]3[B-](F)(F)n3c(/C=C/c4c[nH]c5ccc([N+](=O)[O-])cc45)c(I)c(C)c32)c1", "medium": "octanol/HEPES buffer", "pH": "pH 7.4", "temperature": "room temperature", "logP": 1.5}
{"SMILES": "COC(=O)c1ccccc1-c1c2ccc(=O)cc-2oc2cc(OCCCCC[P+](c3ccc(C)cc3)(c3ccc(C)cc3)c3ccc(C)cc3)ccc12", "technique": "shake-flask HPLC", "medium": "1-octanol/water", "logP": "1.43 ± 0.01"}
{"SMILES": "CN(CCCN=Cc1ccccc1O)CCN(C)CCCN=Cc1ccccc1O", "medium": "1-octanol/saline", "pH": "pH 7.4", "notes": "67Ga complex", "logP": "1.59 ± 0.03"}
{"SMILES": "CN(C)C(=S)N(C)N=Cc1ccccc1SSc1ccccc1C=NN(C)C(=S)N(C)C", "technique": "stir-flask, HPLC", "medium": "octanol/water", "logP": "4 ± 0.1"}
{"SMILES": "CC[P+](CC)(CC)[Au-][S]c1ccc(OC)cc1", "medium": "n-octanol/water", "logP": 2.01}
{"SMILES": "CN(C)C(=O)c1ccc(COC(=O)N[c-]2cccc2)cc1.[Fe+2].c1cc[cH-]c1", "technique": "RP-TLC", "medium": "MOPS/acetonitrile", "pH": "pH 7.4", "logP": "3.36 ± 0.11"}
{"SMILES": "COc1cc(OC)cc(C2=C3C(C)=C(I)C(C)=[N+]3[B-](F)(F)n3c(/C=C/c4cccs4)c(I)c(C)c32)c1", "medium": "octanol/HEPES buffer", "pH": "pH 7.4", "temperature": "room temperature", "logP": 0.73}
{"SMILES": "CC1=C2[O][Ru-]([Cl])[O+]=C2C=CN1CCCCCCN1C=CC2=[O+][Ru-]([Cl])[O]C2=C1C.Cc1ccc(C(C)C)cc1.Cc1ccc(C(C)C)cc1", "technique": "shake flask, UV-vis", "medium": "n-octanol/water", "notes": "aqua complex", "logP": -1.34}
{"SMILES": "O=C(N[c-]1cccc1)OCc1ccc(C(=O)O)cc1.[Fe+2].c1cc[cH-]c1", "technique": "RP-TLC", "medium": "MOPS/acetonitrile", "pH": "pH 7.4", "logP": "1.9 ± 0.04"}
{"SMILES": "N=C(N)NCCC[C@@H]1NC(=O)[C@H](CCCCNC(=O)CC[C@H](NC(=O)CC[C@H](NC(=O)CN2CCN(CC(=O)O)CCN(CC(=O)O)CCN(CC(=O)O)CC2)C(=O)N[C@@H](CCC(=O)NCCCC[C@@H]2NC(=O)[C@@H](Cc3ccccc3)NC(=O)[C@H](CC(=O)O)NC(=O)CNC(=O)[C@H](CCCNC(=N)N)NC2=O)C(=O)NCCCC[C@@H]2NC(=O)[C@@H](Cc3ccccc3)NC(=O)[C@H](CC(=O)O)NC(=O)CNC(=O)[C@H](CCCNC(=N)N)NC2=O)C(=O)NCCCC[C@@H]2NC(=O)[C@@H](Cc3ccccc3)NC(=O)[C@H](CC(=O)O)NC(=O)CNC(=O)[C@H](CCCNC(=N)N)NC2=O)NC(=O)[C@@H](Cc2ccccc2)NC(=O)[C@H](CC(=O)O)NC(=O)CNC1=O [gallium-68 labelled]", "medium": "octanol/PBS", "pH": "pH 7.4", "temperature": "room temperature", "logP": "-3.76 ± 0.07"}
{"SMILES": "N[C@H](CSC(F)(F)[18F])C(=O)O", "medium": "n-octanol/water", "logP": -2.22}
{"SMILES": "Cc1c(C)c(C)[c-](C)c1C.O=C([N-]c1ccccc1)c1ccccn1.[Cl-].[Ir+3]", "technique": "shake-flask", "medium": "octanol/PBS", "logP": "1.15 ± 0.23"}
{"SMILES": "CCCC[P+](CCCC)(CCCC)CCCC.Cc1ccc(S(=O)(=O)[N-]C(=O)NN2CC3CCCC3C2)cc1 (centres unmarked)", "technique": "shake-flask", "medium": "n-octanol/water", "temperature": "37 °C", "logP": "1.36 ± 0.03"}
{"SMILES": "CC[P+](CC)(CC)[Au-][S+](C[C@H]1O[C@H](O[C@H]2O[C@H](COC(C)=O)[C@@H](OC(C)=O)[C@H](OC(C)=O)[C@H]2OC(C)=O)[C@H](OC(C)=O)[C@@H](OC(C)=O)[C@@H]1OC(C)=O)[Au-][P+](CC)(CC)CC.[Cl-]", "medium": "n-octanol/water", "logP": -0.28}
{"SMILES": "CN(C)[P+](c1ccccc1)(c1ccccc1)c1ccccc1", "technique": "HPLC", "medium": "octanol/water", "tested at": "100 µM", "logP": "-1.29 ± 0.194"}
{"SMILES": "CC[P+](c1cc(C)cc(C)c1)(c1cc(C)cc(C)c1)c1cc(C)cc(C)c1", "technique": "shake flask, HPLC", "medium": "1-octanol/water", "logP": "0.08 ± 0.02"}
{"SMILES": "O=C1c2ccccc2C2(c3ccc(O)cc3Oc3cc(O)ccc32)N1CCS(=O)(=O)O", "technique": "shake flask", "medium": "n-octanol/water", "temperature": "25 °C", "logP": -1.03}
{"SMILES": "CCN(CC)c1ccc2c(-c3ccc(S(=O)(=O)NCCNC(=O)CN4CCN(CC(=O)[O-])CCN(CC(=O)O)CCN(CC(=O)[O-])CC4)cc3S(=O)(=O)[O-])c3ccc(=[N+](CC)CC)cc-3oc2c1.[64Cu+2]", "logP": "-1.4 ± 0.1"}
{"SMILES": "CCOC(=O)c1[nH]c(C)c(/C=C/C2=[N+]3C(=C(c4cc(OC)cc(OC)c4)c4c(C)c(I)c(/C=C/c5c(C)[nH]c(C(=O)OCC)c5C)n4[B-]3(F)F)C(C)=C2I)c1C", "medium": "octanol/HEPES buffer", "pH": "pH 7.4", "temperature": "room temperature", "logP": 1.88}
{"SMILES": "CCCCC[P+](c1ccc(C)cc1)(c1ccc(C)cc1)c1ccc(C)cc1", "technique": "shake flask, HPLC", "medium": "1-octanol/water", "logP": "0.26 ± 0.02"}
{"SMILES": "CC(=O)Nc1ncc(CN2CC[C@H](Oc3cccc(F)n3)C[C@@H]2C)s1", "logP": 3.05}
{"SMILES": "C#CCN(C(=O)OCc1ccc(B2OC(C)(C)C(C)(C)O2)cc1)[c-]1cccc1.[Fe+2].c1cc[cH-]c1", "technique": "RP-TLC", "medium": "MOPS/acetonitrile", "pH": "pH 7.4", "logP": "5.51 ± 0.17"}
{"SMILES": "O=C([O-])CN1CCN(CC(=O)[O-])CCN(CC(=O)NCCc2ccc3c(c2)C2C=CCC2C(c2cc4c(cc2Br)OCO4)N3)CCN(CC(=O)[O-])CC1.[111In+3] (centres unmarked)", "medium": "octanol/water", "notes": "In(III) complex", "logP": "4.8 ± 0.3"}
{"SMILES": "CC1=C2[O][Ru-]([Cl])[O+]=C2C=CN1CCCN1C=CC2=[O+][Ru-]([Cl])[O]C2=C1C.Cc1ccc(C(C)C)cc1.Cc1ccc(C(C)C)cc1", "technique": "shake flask, ICP-MS", "medium": "n-octanol/water", "notes": "aqua complex", "logP": -1.39}
{"note": "Repeated from above:"}
{"SMILES": "Fc1cc2nc3c4cccnc4c4ncccc4c3nc2cc1F.[Cl-].[Cl-].[Ru+2].c1ccncc1.c1ccncc1.c1ccncc1.c1ccncc1", "medium": "n-octanol/water", "logP": "-1.15 ± 0.05"}
{"SMILES": "Cc1c(C)c(C)[c-](C)c1C.[C-]#[O+].[C-]#[O+].[C-]#[O+].[Cl-].[Cl-].[Cl-].[Ir+3].[Re+].c1cnc(-c2ncccn2)nc1", "technique": "shake flask", "logP": 0.47}
{"SMILES": "COc1cc(OC)cc(C2=C3C(C)=C(I)C(C)=[N+]3[B-](F)(F)n3c(/C=C/c4c[nH]c5ccc([N+](=O)[O-])cc45)c(I)c(C)c32)c1", "medium": "octanol/HEPES buffer", "pH": "pH 7.4", "temperature": "room temperature", "logP": 1.5}
{"SMILES": "COC(=O)c1ccccc1-c1c2ccc(=O)cc-2oc2cc(OCCCCC[P+](c3ccc(C)cc3)(c3ccc(C)cc3)c3ccc(C)cc3)ccc12", "technique": "shake-flask HPLC", "medium": "1-octanol/water", "logP": "1.43 ± 0.01"}
{"SMILES": "CN(CCCN=Cc1ccccc1O)CCN(C)CCCN=Cc1ccccc1O", "medium": "1-octanol/saline", "pH": "pH 7.4", "notes": "67Ga complex", "logP": "1.59 ± 0.03"}
